# Published values from different studies.
# Protocols differ between the studies behind these lines. “And” joins repeats or separate records; there may be more than shown. Numbers after ± are the reported error.
SMILES,assay,system,setting,how to read,measurement,result
COCCOCCOCCNC(=O)Cc1cc(CC(=O)N[C@H]2C[C@H]3C(=O)Nc4cc(OCCOCCOCCOC)cc(n4)C(=O)N4CCC[C@H]4C(=O)Nc4cc(OCCOCCOCCOC)cc(n4)C(=O)N4CCC[C@H]4C(=O)Nc4cc(OCCOCCOCCOC)cc(n4)C(=O)N3C2)cc(CC(=O)N[C@H]2C[C@H]3C(=O)Nc4cc(OCCOCCOCCOC)cc(n4)C(=O)N4CCC[C@H]4C(=O)Nc4cc(OCCOCCOCCOC)cc(n4)C(=O)N4CCC[C@H]4C(=O)Nc4cc(OCCOCCOCCOC)cc(n4)C(=O)N3C2)c1,"anion binding, ITC",water/methanol 95 vol% (97.7 mol%),"298 K, with: sodium iodide",,ΔH,-4.6 ± 0.1 kJ/mol
COc1c(Cl)cccc1Nc1c(-c2ccncc2C#C[C@@]2(C)CCCN2C(=O)/C=C/CN(C)C)[nH]c2c1C(=O)NCC2,,"NCI-H2073 parental xenograft (EGFR wild-type), BALB/c nude mice","50 mg/kg once daily, 21 days",,tumour growth inhibition,87.3%
O=C([O-])CN1CCN(CC(=O)[O-])CCN(CC(O)CN(CC(O)CN2CCN(CC(=O)[O-])CCN(CC(=O)[O-])CCN(CC(=O)[O-])CC2)CC(O)C(O)C(O)C(O)CO)CCN(CC(=O)[O-])CC1.[Gd+3].[Gd+3] (stereo not drawn),,human plasma,"310 K, 1.41 T field",,relaxivity,10.8 ± 0.2 mM⁻¹ s⁻¹
COc1ccc(NC(=O)c2ccc3[nH]c(-c4ccc(N(C)C)cc4)nc3c2)cn1,,"CT26, BALB/c mice, subcutaneous syngeneic graft","dose not given, day 11",,tumour volume,533 mm3 and 71.9 mm3 and 65.4 mm3 and 630 mm3 and 599 mm3
CCC(=O)N[C@@H](C)C(=O)OCC(=O)N[C@@H](C)C(=O)O,,water,"pH 3, 50 °C",,chain scission rate constant,0.003 h⁻¹
COC1CN([C@H]2CC[C@H]([C@@]3(C)Oc4c(Cl)cc(C(=O)NCc5c(SC)cc(C)[nH]c5=O)c(C)c4O3)CC2)C1,"RNA-seq, measured: ZMYND15","human, whole blood","dose not given, 24 h",baseline: pretreatment baseline,log2 fold change,3.86
Cc1c(C)c2cccnc2c2ncccc12.O=[N+]([O-])[O-].O=c1c(C=NN=C([S-])Nc2ccccc2)coc2ccccc12.[Cu+2],DNA cleavage,supercoiled pUC19 DNA,"100 µM, 4 h, 37 °C, no reducing agent, with: DNA 40 µM",,supercoiled DNA form,48%
COc1ccc(C(=O)CCc2cc(C(CCc3ccc(O)cc3OC)c3ccc(O)cc3)c(O)cc2OC)cc1 (racemic),,human blood,"1 µM, with: A23187",,LTB4 level,2600 ± 1030 pg/mL
Cc1cccc(C)c1CNc1cc(C(=O)N2CCC2)cn2c(C)c(C)nc12,,"rat, aspirin-induced ulcer","oral, 2 mg/kg, 4 h, with: aspirin 150 mg/kg",,gastric lesion area,19.3 ± 6 mm
CC(C)OC(=O)[C@H](CO)NCc1cc(Cl)c(OCc2cccc(-c3ccccc3)c2Br)cc1OCc1cccnc1,,"hPD-L1 MC-38 tumour, humanised hPD-1 C57BL/6 mouse","oral, 5 mg/kg × 21, day 20",baseline: vehicle,tumour volume T/C,40.8%
CC(=O)[O-].O.[Cu+2].[O-]c1ccc(Br)cc1C=NCCN1CCOCC1,FRAP,,40 µM,,ferric reducing power,11.2%
CC(CCC(=O)NCc1ccc(C(=O)NO)cc1)C1CCC2C3C(O)CC4CC(O)CCC4(C)C3CCC12C (stereo not drawn),measured: Tauro-conj,"PCK rat (Pkhd1 mutant), peripheral blood","oral gavage, dose not given, 5 months",baseline: total bile acids,relative abundance,39%
O=S(=O)(NCc1ccncc1)c1ccc(C2CCCCC2)cc1,immunohistochemistry,"CK-p25 mice male, hippocampal dentate gyrus","ip, 0.1 mg/kg daily, 2 wk",baseline: vehicle,PU.1+ nuclei reduction,~47%
COc1cc(O)ccc1CCC(c1ccc(O)cc1)c1cc2c(c(C)c1O)OC(c1ccc(O)cc1)CC2 (mixture of isomers),,human blood,"3 µM, with: A23187",,LTB4 isomers level,197 ± 89 pg/mL
NC[C@@H](C(=O)Nc1ccc(-c2cn[nH]c2)cc1)c1ccccc1,tonometry,"Macaca cyclopis, ocular normotensive","ocular, 0.03%, 48 h",,IOP,19.1 mmHg
CCCCCCCCCCCCCCCC(=O)OCC(CSC[C@H](N)C(=O)N[C@@H](CO)C(=O)N[C@@H](CCCCN)C(=O)N[C@@H](CCCCN)C(=O)N[C@@H](CCCCN)C(=O)N[C@@H](CCCCN)C(=O)NCCCCCC(=O)N[C@@H](CCCCN)C(=O)N[C@@H](CC(C)C)C(=O)N[C@H](C(=O)N[C@@H](Cc1ccccc1)C(=O)N[C@@H](Cc1ccccc1)C(=O)N[C@@H](Cc1ccc2ccccc2c1)C(=O)O)C(C)C)OC(=O)CCCCCCCCCCCCCCC (stereo partly drawn),,"APP/PS1 transgenic mouse, hippocampus","intrahippocampal, dose not given, 5 d, unit not given",baseline: injected over adjacent side,Iba1 level,0.878 and 0.854 and 1.26 and 0.829 and 0.891
CN1CCC[C@]1(C)/C=C/S(=O)(=O)NC(=O)Nc1c2c(cc3c1CCC3)CCC2,,"human, whole blood ex vivo","12.5 mg twice daily, day 14, 6 h, multiple ascending dose, with: LPS and ATP",,IL-18 inhibition,103%
COc1ccccc1-c1c[nH]c2ncc(-c3cncc(C(=O)N(C)C)c3)cc12,,"NSG mice, K562 xenograft","ip, 0.0268 mmol/kg once daily, 16 days",,tumour growth inhibition,40.3 ± 6%
COCC1CN(C2CCN(c3cc(OC)c(Nc4ncc(Br)c(Nc5ccc6c(c5P(C)(C)=O)OCCO6)n4)cc3C)CC2)C1,RECIST 1.1,advanced EGFR-mutant NSCLC patients,150 mg once daily,,partial response,16.7%
CC[C@H](C)[C@@H](C(=O)N[C@@H](CC(C)C)C(=O)N[C@@H](CO)C(=O)N[C@@H](CO)C(=O)N[C@H](C(=O)N[C@@H](CCC(=O)O)C(=O)N[C@H](C(=O)NCC(=O)N[C@@H](CO)C(=O)N[C@@H](CC(N)=O)C(=O)N[C@H](C(=O)N1C[C@H](O)C[C@H]1C(N)=O)[C@@H](C)O)C(C)C)[C@@H](C)O)N(C)C(=O)[C@H](C)NC(=O)CN(C)C(=O)[C@H](Cc1ccccc1)NC(=O)[C@H](CO)NC(=O)[C@H](CO)NC(=O)[C@H](CCCNC(=N)N)NC(=O)[C@H](CCC(N)=O)NC(=O)[C@H](CC(C)C)NC(=O)[C@H](Cc1ccccc1)NC(=O)[C@H](CCCC(=O)O)NC(=O)[C@H](C)NC(=O)[C@H](CC(C)C)NC(=O)[C@H](CCCNC(=N)N)NC(=O)[C@H](CCC(=O)O)NC(=O)[C@@H](NC(=O)[C@H](C)NC(=O)[C@@H]1CCCCNC(=O)C[C@H](NC(=O)[C@H](CCCNC(=N)N)NC(=O)CC[C@H](NC(=O)CCCCCCCCCCCCCCCCCCC(=O)O)C(=O)O)C(=O)NCC(=O)N[C@@H]([C@@H](C)O)C(=O)N[C@@H](C)C(=O)N[C@@H]([C@@H](C)O)C(=O)N1)[C@@H](C)O,,diet-induced obese rats,"subcutaneous, 15 nmol/kg every second day, day 20",,cumulative food intake,298 g/rat
CC(C)[C@H](NC(=O)[C@H](CC(=O)O)NC(=O)[C@@H](NC(=O)[C@H](Cc1c[nH]c2ccccc12)NC(=O)[C@H](CCC(=O)O)NC(=O)[C@H](C)NC(=O)[C@H](CC(=O)O)NC(=O)CNC(=O)[C@H](Cc1ccc(O)cc1)NC(=O)[C@H](Cc1ccc(OP(=O)(O)O)cc1)NC(=O)[C@H](Cc1ccc(O)cc1)NC(=O)CCNC(=O)c1ccc(C(=O)[O-])c(-c2c3ccc(=[N+](C)C)cc-3oc3cc(N(C)C)ccc23)c1)C(C)C)C(=O)N[C@@H](CO)C(=O)O,immunohistochemistry,"ApoE-/- mice, aortic sinus sections","dose not given, 21 days",,MMP-9 positive area,19.9 ± 6.18%

# Repeated from above:
SMILES,assay,system,setting,how to read,measurement,result
COc1ccc(C(=O)CCc2cc(C(CCc3ccc(O)cc3OC)c3ccc(O)cc3)c(O)cc2OC)cc1 (racemic),,human blood,"1 µM, with: A23187",,LTB4 level,2600 ± 1030 pg/mL
Cc1cccc(C)c1CNc1cc(C(=O)N2CCC2)cn2c(C)c(C)nc12,,"rat, aspirin-induced ulcer","oral, 2 mg/kg, 4 h, with: aspirin 150 mg/kg",,gastric lesion area,19.3 ± 6 mm
CC(C)OC(=O)[C@H](CO)NCc1cc(Cl)c(OCc2cccc(-c3ccccc3)c2Br)cc1OCc1cccnc1,,"hPD-L1 MC-38 tumour, humanised hPD-1 C57BL/6 mouse","oral, 5 mg/kg × 21, day 20",baseline: vehicle,tumour volume T/C,40.8%
